Results collected from several papers.
Numbered parts are unrelated; each lists some results of a single study. Changes are numbered by the printed parent chain.
Chain of UniProt Q94JM3 (whole entry, looked up): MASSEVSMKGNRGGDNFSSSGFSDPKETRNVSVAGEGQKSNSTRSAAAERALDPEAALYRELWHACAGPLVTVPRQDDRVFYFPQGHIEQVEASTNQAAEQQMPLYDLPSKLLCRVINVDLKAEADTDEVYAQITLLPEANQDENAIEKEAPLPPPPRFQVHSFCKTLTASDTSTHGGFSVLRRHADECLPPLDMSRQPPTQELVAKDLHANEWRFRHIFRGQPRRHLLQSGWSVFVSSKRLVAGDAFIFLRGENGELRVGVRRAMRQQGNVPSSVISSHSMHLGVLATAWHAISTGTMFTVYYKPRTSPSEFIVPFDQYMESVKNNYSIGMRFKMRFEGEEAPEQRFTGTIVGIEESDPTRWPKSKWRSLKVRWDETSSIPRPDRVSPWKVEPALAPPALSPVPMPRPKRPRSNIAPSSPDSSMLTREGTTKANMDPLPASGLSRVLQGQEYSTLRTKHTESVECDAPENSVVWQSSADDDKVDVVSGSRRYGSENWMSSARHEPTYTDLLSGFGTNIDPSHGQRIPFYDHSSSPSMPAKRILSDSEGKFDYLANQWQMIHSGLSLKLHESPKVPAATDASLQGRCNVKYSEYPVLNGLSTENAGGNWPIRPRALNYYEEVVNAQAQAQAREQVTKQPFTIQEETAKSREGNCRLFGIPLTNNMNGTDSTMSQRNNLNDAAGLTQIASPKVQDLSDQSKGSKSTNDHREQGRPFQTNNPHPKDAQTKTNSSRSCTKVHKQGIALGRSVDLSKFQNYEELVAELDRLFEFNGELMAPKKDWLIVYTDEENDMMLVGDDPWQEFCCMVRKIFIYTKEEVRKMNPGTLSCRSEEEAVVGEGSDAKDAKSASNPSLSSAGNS
Chain of UniProt O24408 (whole entry, looked up): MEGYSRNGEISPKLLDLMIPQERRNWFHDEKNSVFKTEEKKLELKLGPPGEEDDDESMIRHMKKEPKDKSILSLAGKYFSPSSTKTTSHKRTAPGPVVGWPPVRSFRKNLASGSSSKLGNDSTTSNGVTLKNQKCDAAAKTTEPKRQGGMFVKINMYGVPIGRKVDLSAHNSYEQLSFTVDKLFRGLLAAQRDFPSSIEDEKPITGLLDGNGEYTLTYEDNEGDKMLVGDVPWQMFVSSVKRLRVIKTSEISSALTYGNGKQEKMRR
Chain of UniProt Q9C5X0 (whole entry, looked up): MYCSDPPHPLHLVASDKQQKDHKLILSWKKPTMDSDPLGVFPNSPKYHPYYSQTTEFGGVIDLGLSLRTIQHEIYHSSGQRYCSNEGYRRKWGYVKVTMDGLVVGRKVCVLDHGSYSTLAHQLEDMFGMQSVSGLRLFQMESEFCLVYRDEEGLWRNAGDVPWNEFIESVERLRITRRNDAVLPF

Block 1 — target: CCNE1, cyclin fold, Cln2 fusion (human); technique: yeast growth competition, sequencing; matrix: yeast; notes: weak parent motif; relative to: not given; reading: higher = stronger binding
Starting sequence: CDC6 docking peptide (human); TLKGRRLVFDNQL
| Variant | normalised enrichment score |
| --- | --- |
| ILKGRRLVFDNQL [T1I] | 0.337 |
| TLKGRRLVDDNQL [F9D] | 0.797 |
| TLKGRRLEFDNQL [V8E] | 1.17 |
| TLKGRRLVFDIQL [N11I] | 0.172 |
| TLKGRRLVFDNML [Q12M] | 0.943 |
| TLKGRRLVFANQL [D10A] | -0.148 |
| TLKLRRLVFDNQL [G4L] | 0.555 |
| TLKGRRWVFDNQL [L7W] | 0.756 |
| TLKGRRLVFDNQG [L13G] | 0.112 |
| TLKGRRLCFDNQL [V8C] | 0.815 |
| MLKGRRLVFDNQL [T1M] | 0.674 |
| TKKGRRLVFDNQL [L2K] | 0.8 |
| TLKGRRLVSDNQL [F9S] | 0.0785 |
| TLKGRRLVFDCQL [N11C] | 1.09 |
| TLKGNRLVFDNQL [R5N] | 0.368 |
| TLKGRRLSFDNQL [V8S] | 0.599 |
| TLKGRRLVFDAQL [N11A] | 0.927 |
| TLKGRRLVFCNQL [D10C] | 1.08 |

Block 2 — technique: RNA Bind-n-Seq; molecule type: RNA; matrix: in vitro; concentration: 365 nM; relative to: no-protein control; reading: higher = stronger binding
Target: RNA binding protein fox-1 homolog 2, RRM domain, GST-SBP tag (RBFOX2, Homo sapiens, UniProt O43251-10, residues 100-194)
Notes: natural RNA segment, single round, ends assumed
All sequences stand within: GGGAGUUCUACAGUCCGACGAUC … UGGAAUUCUCGGGUGCCAA
Construct (chain): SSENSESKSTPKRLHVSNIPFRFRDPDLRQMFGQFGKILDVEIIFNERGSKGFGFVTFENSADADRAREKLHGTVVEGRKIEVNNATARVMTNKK
| Strand | RBNS enrichment (R) |
| --- | --- |
| AAUGUCACUAUUAAUUUAUCAUACCAUUUCCAAAAAGGGCUUUGUGCUUUUCACAUAAAAUUGAGACAGUGUAUAUUUAAUCUAAUUUAAAUUUUAAAGAGAUACUGGUA | 0.477 |
| UUCUUCAUAGAGGAAACAAUGUGCCAGUCUUAUUCUUUUCUUCAACAACCUUGACUUCCAUGGAGGAAGUGCUGGCCCCAAGGGGUCUGACACAAAGACGGGAAACCCAG | 0.331 |
| AGUAAUAACCGUAUUUUUCACAGGGUGACAAAUUGGGCCAAUAAAUCUGCCAUCUUUGAACUCAUCUUUGGUGGCUAGACUGCUACGGCAGCUUCUCUGAUGGGAAAGUU | 0.276 |
| AUCCACCCGCCUCAGUCUCCCAAAGUGCUGAGAUUACAGGCAUGAGUCACUACGCCCGGCCCAUGUCUGUCUGUCUUGAUGUGUGAGCAGCAGCUGUGGUCAUUAAACCA | 0.297 |
| GCCGGAGCUAUUUAUGGCAAACACAUGCUUUUGUAUCUUGUCAUAGUCAUCCACAGAUGGCAAAACUGGACUUGAUUCUACUGGCAUGUAAGACAGGCGUGCUAGUGAGC | 0.47 |
| UGUUUUGAAUAAUGACCACGCAUGGACACAGUUUCAUUAAUUUAAAUUGCACCACACAAGUAGCAGUUCAUAAGAAUAAAAUGUGCUUAUUUUACGCAUGGUCCAUAAAA | 0.616 |
| GAUAGGAUUUAGUUGUGUUUAGGACAUUGCAGAUCUUCUAGAAGUUUCCCCUCAAUCAGGUUGAUAAGACCUUCUAAGCUUCUGCCAAGCAUCUUCAGUGCUCACAAUCA | 0.623 |
| UGCUUGUGGUUUAGGUUCCCCUCUCCUUUUUUUCUUUUUAAUUCAAUUUGGAAUCAGAAAGCUGGAUUCUGGUAAAUGGUCUUGUGCCCUUUAUCCUACUCAUCCCCGAU | 0.826 |
| GGGGCCCACCCUGCUCCCUGUUCCUGCUAGGGCCUGCCAGUGCCCCUGAGCUUGCUUUCCACAUUCUCCCAGGGUAUGGAGACCUAGACCUGUCUUUGGGGCCAUUAGCA | 0.749 |
| UGGGGAGUAGUGUGGCCAGGGAACUGGAAUCCCUGGUGGAUUUCUGAUUCCUGUGGUGAGAAGGAAAGCUACAGGACCUGGAGAAGGGGAUGCAGAGGCAGGCCUGCUGA | 0.672 |
| UCCGCUGUGGUGGCUGCCAAGAUGCCUUCUUAAACUUAUGCAAGGAAACCAAACCCUCCCACAGUUCCCAAGCAGACACUGGAAGCAGAGGCUUCUCACCCUUCCUGCUU | 0.364 |
| GACACCAAAUGGAAGAAGCACAUCAAGACUGUUCUCCUGCGGCCAACACUGGCCCGGAAGCCGCCCUCCAUACAGGCCCUCAGGGGGCCUGCCUUCUGCGCCUCAGUCCC | 0.311 |

Block 3 — Molecule: B1 (IAA2); technique: two-hybrid; relative to: out of 4 tests; reading: higher = firmer interaction
B1: IAA2 (Arabidopsis thaliana, UniProt P49678); chain MAYEKVNELNLKDTELCLGLPGRTEKIKEEQEVSCVKSNNKRLFEETRDEEESTPPTKTQIVGWPPVRSSRKNNNSVSYVKVSMDGAPYLRKIDLKTYKNYPELLKALENMFKVMIGEYCEREGYKGSGFVPTYEDKDGDWMLVGDVPWDMFSSSCKRLRIMKGSDAPALDSSL
| partner | positive tests |
| --- | --- |
| ARF2 727-859 (Arabidopsis thaliana, UniProt Q94JM3) | 1 |
| IAA34 (Arabidopsis thaliana, UniProt Q9C5X0) | 4 |
| IAA16 (Arabidopsis thaliana, UniProt O24407) | 4 |
| IAA9 (Arabidopsis thaliana, UniProt Q38827) | 4 |
| IAA8 (Arabidopsis thaliana, UniProt Q38826) | 4 |
| IAA18 (Arabidopsis thaliana, UniProt O24408) | 1 |

Block 4 — technique: DHFR PCA, dose-response; matrix: yeast; with: (+)-ABA, dose series; reading: lower = more sensitive
Target: ABI1, truncated, D143A, DHFR fusion (Arabidopsis thaliana, UniProt P49597)
Notes: Hill fit, not affinity, not high confidence
Starting sequence: PYL1, truncated, DHFR fusion (Arabidopsis thaliana, UniProt Q8VZS8); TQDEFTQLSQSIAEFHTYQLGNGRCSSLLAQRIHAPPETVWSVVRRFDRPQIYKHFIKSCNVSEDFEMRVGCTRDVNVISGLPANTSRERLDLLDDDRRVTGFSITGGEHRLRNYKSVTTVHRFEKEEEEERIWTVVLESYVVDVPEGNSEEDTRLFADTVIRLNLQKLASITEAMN
| Variant | ABA EC50 [µM] |
| --- | --- |
| L138H | 103 |
| T86P | 0.164 |
| W41V | 62.2 |
| A84K | 0.112 |
| L112Q | 535 |
| Y141K | 11.3 |
| P50D | 109 |
| A84M | 0.949 |
| S87Q | 0.914 |
| L94P | 12.8 |
| V161S | 775 |
| S140D | 20.2 |
| R90D | 721 |
| R74I | 9.1 |
| S87K | 3.44 |
| T135L | 1440 |
| H110F | 70.5 |
| V40Y | 9.29 |
| I172P | 823 |
| Y115R | 0.113 |
| N149M | 10.4 |

Block 5 — target: FOSL1, bZIP domain (human); technique: DHFR protein complementation; matrix: yeast; relative to: wild-type JUN-FOS pair; reading: higher = stronger binding
Notes: single substitutions, most at no-binding floor
Starting sequence: JUN, bZIP domain (human); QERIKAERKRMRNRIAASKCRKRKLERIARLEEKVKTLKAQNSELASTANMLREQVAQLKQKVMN; partner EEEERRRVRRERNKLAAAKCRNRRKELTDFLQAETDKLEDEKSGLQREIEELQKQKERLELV
| Variant | binding fitness [natural log] |
| --- | --- |
| A29G | -0.58 |
| L52G | -1.42 |
| E32L | -0.39 |
| A46L | -0.39 |
| V35D | -1.38 |
| A40K | -0.287 |
| K39I | -0.601 |
| Q41P | -1.26 |
| L59S | -1.16 |
| L52D | -1.43 |
| L38P | -1.44 |
| N42F | -1.35 |
| Q41Y | -1.4 |
| Q55C | -0.567 |
| Q41E | -0.303 |
| M51V | -0.412 |
| A46I | -0.523 |
| T48N | -0.807 |
| E33N | -0.61 |
| L45V | -1.3 |
| E54Y | -0.628 |
| T37P | -1.38 |
| A46P | -1.32 |
| S47F | -0.465 |
| Q55I | -0.503 |

Block 6 — technique: universal PBM; molecule type: double-stranded DNA, one strand shown; matrix: in vitro; concentration: not given; reading: higher = stronger binding
Target: Sal-like protein 4, full length isoform B (SALL4, Homo sapiens, UniProt Q9UJQ4-2, residues 1-616)
Notes: 8-mer, flanks averaged, mean of replicates
Construct (chain): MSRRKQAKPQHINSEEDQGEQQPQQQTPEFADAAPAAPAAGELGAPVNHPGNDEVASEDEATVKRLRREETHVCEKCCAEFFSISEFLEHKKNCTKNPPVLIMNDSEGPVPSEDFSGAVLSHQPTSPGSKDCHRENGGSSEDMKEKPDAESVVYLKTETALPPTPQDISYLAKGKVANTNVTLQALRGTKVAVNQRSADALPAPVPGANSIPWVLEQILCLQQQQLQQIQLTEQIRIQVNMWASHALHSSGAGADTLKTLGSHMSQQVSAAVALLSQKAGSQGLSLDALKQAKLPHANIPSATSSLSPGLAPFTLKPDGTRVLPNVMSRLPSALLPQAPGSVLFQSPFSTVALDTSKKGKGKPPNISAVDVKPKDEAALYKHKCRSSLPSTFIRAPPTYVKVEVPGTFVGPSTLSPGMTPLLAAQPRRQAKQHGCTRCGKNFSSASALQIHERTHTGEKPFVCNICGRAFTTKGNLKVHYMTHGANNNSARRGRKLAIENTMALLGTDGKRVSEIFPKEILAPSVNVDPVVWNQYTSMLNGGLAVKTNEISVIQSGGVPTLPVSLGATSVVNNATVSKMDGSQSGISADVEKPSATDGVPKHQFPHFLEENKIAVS
| Strand | E-score |
| --- | --- |
| AAGGATAA | 0.161 |
| CCATGAGC | -0.272 |
| GAACTGAA | 0.108 |
| CATATCCG | 0.0923 |
| ACCATTGA | 0.116 |
| CTTACTCA | -0.0048 |
| CACATAAC | 0.212 |
| GTCGCGAC | -0.0852 |
| CCGGTACG | -0.302 |
| CCTATAGG | -0.252 |
| ATCAGCTG | 0.0351 |
| CTCAACAC | 0.0058 |
| CATCTCAG | -0.0814 |
| CGCGTTGC | -0.117 |
| ACGACGCA | -0.0123 |
| AATTTGGA | 0.149 |
| AGAGCTAT | -0.0055 |
| GTAAATAA | 0.327 |
| AGGTTGAT | -0.0449 |
| CACGAAAG | 0.0151 |
| GTCATCTA | 0.111 |
| CTCTCCGC | -0.143 |
| AAGCTTTA | 0.0243 |
| ATTCTCTG | 0.0294 |
| GATTCAGA | 0.0131 |

Block 7 — technique: protein-binding microarray; molecule type: double-stranded DNA, one strand shown; matrix: in vitro; concentration: not given; reading: higher = stronger binding
Target: Hepatocyte nuclear factor 3-beta, forkhead domain (FOXA2, Homo sapiens, UniProt Q9Y261, residues 142-269)
Notes: k-mer, scored over probes, only values ≥0.25
Construct (chain): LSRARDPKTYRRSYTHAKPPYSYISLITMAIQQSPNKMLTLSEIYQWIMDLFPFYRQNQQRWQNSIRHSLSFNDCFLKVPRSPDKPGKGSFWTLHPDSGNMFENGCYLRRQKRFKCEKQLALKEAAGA
| Strand | E-score |
| --- | --- |
| GTATATGA | 0.268 |
| TTATATAA | 0.295 |
| GATGTAAA | 0.271 |
| AAATGATA | 0.335 |
| AGCTATAT | 0.3 |
| AATATAAA | 0.27 |
| GATACATC | 0.259 |
| AGATCAAT | 0.27 |
| ATTAGTAA | 0.284 |
| AACTATGA | 0.255 |
| GGTATATA | 0.254 |
| GTTTAATA | 0.279 |
| AGTAGATA | 0.372 |
| TAATTACA | 0.321 |
| ACAATTGA | 0.265 |
| ACCCATAT | 0.297 |
| AGTATAAT | 0.282 |
| ATGTTATC | 0.266 |

For quick reference, copied from above (block 4):
| Variant | ABA EC50 [µM] |
| --- | --- |
| V161S | 775 |
| S140D | 20.2 |
| R90D | 721 |
| R74I | 9.1 |
| S87K | 3.44 |
| T135L | 1440 |
| H110F | 70.5 |
| V40Y | 9.29 |
| I172P | 823 |
